{"data": "Measured values pooled from the literature", "TMPRSS2": "Transmembrane protease serine 2 (TMPRSS2, Homo sapiens, UniProt O15393)", "CTSL": "Procathepsin L (CTSL, Homo sapiens, UniProt P07711)", "note": "Each line is one published result; not all experiments were run side by side.", "chain of UniProt O15393 (whole entry, looked up)": "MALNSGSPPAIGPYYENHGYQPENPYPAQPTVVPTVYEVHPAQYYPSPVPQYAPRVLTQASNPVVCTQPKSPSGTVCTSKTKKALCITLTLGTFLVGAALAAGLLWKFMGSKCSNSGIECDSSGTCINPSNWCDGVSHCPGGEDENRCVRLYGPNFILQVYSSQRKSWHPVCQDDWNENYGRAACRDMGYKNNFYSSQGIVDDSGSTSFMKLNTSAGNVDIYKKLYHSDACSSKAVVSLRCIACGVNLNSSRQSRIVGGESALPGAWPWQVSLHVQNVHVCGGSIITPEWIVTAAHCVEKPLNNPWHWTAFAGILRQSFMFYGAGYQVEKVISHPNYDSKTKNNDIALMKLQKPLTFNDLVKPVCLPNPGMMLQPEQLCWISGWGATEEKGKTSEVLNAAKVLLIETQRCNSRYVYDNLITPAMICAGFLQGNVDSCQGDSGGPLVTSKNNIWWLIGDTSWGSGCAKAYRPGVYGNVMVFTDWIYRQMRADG", "chain of UniProt P07711 (whole entry, looked up)": "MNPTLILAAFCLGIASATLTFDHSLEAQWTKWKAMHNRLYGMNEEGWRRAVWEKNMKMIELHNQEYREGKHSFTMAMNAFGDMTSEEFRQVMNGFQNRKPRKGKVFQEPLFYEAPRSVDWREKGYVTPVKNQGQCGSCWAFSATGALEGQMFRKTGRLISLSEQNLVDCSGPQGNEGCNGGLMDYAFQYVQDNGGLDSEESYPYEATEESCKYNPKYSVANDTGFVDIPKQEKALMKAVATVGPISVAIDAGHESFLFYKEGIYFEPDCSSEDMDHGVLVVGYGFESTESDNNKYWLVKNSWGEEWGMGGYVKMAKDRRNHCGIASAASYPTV", "chain of UniProt Q13976 (whole entry, looked up)": "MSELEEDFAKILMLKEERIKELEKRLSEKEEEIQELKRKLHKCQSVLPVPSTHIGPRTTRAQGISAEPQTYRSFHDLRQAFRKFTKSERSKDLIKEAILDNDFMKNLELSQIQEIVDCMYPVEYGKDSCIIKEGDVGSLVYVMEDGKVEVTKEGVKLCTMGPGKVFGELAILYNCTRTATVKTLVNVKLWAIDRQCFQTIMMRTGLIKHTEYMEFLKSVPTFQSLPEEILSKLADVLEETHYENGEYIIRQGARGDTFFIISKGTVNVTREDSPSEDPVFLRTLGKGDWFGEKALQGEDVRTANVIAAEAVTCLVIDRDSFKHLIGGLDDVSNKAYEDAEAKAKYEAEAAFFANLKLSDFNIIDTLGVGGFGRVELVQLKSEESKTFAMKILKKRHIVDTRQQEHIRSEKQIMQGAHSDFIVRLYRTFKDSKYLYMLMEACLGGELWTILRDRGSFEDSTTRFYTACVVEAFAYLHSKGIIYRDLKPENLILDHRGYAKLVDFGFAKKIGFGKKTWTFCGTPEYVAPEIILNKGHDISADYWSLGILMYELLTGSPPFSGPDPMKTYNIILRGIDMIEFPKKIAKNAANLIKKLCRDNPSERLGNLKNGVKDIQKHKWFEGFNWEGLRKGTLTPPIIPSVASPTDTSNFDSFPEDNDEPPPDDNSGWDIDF", "chain of UniProt P22303 (whole entry, looked up)": "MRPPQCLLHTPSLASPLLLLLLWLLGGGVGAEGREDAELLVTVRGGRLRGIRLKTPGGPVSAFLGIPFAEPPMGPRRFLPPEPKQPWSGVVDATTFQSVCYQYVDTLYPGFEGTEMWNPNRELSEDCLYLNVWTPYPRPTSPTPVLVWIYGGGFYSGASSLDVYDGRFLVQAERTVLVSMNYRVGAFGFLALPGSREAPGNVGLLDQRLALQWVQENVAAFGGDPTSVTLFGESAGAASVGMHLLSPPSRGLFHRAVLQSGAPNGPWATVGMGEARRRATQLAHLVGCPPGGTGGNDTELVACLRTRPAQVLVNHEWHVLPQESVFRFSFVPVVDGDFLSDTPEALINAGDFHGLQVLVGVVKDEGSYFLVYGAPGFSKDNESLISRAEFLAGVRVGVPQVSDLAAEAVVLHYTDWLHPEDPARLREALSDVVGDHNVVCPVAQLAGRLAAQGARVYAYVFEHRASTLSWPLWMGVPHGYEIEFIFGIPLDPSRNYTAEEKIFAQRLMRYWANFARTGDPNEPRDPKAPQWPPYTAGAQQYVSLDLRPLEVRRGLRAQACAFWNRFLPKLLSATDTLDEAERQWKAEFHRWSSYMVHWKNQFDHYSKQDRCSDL", "chain of UniProt P25105 (whole entry, looked up)": "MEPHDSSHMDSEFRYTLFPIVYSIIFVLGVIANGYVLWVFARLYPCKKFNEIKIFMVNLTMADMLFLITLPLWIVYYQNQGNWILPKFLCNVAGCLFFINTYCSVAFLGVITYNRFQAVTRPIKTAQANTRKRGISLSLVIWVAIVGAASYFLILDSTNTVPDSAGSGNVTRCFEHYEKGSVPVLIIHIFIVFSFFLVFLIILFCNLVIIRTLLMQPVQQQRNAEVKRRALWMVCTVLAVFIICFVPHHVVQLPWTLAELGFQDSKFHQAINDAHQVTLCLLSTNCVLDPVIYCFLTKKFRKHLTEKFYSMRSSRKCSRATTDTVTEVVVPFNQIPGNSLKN", "chain of UniProt Q86UX6 (whole entry, looked up)": "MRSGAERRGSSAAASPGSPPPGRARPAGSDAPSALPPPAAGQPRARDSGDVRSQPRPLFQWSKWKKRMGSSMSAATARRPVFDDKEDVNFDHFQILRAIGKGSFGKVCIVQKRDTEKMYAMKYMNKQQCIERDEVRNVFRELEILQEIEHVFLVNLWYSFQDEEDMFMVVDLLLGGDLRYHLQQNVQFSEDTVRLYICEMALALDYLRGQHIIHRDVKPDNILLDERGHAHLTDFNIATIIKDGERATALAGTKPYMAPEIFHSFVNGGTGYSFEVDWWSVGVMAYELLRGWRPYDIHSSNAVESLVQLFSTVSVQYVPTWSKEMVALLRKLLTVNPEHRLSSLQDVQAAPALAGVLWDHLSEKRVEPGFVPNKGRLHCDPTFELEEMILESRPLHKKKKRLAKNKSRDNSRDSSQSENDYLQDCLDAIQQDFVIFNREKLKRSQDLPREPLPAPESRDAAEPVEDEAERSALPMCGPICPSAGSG", "chain of UniProt Q09470 (whole entry, looked up)": "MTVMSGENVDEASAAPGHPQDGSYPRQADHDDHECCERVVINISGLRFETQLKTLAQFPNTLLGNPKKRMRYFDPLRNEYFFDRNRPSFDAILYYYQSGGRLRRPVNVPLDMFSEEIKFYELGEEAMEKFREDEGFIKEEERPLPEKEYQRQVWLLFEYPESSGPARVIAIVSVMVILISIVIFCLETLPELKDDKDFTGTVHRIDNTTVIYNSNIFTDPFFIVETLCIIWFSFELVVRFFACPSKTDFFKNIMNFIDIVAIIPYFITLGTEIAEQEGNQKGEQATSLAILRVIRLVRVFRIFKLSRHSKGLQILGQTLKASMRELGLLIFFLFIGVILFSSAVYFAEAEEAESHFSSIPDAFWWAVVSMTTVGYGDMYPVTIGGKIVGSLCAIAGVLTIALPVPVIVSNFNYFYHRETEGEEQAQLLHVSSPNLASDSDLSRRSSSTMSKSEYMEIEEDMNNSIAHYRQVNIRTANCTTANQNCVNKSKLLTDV", "chain of UniProt P25101 (whole entry, looked up)": "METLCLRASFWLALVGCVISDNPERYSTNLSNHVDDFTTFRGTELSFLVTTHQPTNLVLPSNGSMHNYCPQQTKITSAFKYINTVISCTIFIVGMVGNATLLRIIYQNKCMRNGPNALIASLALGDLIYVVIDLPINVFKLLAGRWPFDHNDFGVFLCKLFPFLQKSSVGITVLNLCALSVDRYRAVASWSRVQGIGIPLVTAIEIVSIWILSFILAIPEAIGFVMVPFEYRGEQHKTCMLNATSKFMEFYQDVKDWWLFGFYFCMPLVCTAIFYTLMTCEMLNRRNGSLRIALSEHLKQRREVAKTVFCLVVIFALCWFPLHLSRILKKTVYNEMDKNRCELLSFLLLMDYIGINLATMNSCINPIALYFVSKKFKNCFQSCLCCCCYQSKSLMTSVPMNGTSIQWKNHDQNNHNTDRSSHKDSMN", "chain of UniProt P52333 (whole entry, looked up)": "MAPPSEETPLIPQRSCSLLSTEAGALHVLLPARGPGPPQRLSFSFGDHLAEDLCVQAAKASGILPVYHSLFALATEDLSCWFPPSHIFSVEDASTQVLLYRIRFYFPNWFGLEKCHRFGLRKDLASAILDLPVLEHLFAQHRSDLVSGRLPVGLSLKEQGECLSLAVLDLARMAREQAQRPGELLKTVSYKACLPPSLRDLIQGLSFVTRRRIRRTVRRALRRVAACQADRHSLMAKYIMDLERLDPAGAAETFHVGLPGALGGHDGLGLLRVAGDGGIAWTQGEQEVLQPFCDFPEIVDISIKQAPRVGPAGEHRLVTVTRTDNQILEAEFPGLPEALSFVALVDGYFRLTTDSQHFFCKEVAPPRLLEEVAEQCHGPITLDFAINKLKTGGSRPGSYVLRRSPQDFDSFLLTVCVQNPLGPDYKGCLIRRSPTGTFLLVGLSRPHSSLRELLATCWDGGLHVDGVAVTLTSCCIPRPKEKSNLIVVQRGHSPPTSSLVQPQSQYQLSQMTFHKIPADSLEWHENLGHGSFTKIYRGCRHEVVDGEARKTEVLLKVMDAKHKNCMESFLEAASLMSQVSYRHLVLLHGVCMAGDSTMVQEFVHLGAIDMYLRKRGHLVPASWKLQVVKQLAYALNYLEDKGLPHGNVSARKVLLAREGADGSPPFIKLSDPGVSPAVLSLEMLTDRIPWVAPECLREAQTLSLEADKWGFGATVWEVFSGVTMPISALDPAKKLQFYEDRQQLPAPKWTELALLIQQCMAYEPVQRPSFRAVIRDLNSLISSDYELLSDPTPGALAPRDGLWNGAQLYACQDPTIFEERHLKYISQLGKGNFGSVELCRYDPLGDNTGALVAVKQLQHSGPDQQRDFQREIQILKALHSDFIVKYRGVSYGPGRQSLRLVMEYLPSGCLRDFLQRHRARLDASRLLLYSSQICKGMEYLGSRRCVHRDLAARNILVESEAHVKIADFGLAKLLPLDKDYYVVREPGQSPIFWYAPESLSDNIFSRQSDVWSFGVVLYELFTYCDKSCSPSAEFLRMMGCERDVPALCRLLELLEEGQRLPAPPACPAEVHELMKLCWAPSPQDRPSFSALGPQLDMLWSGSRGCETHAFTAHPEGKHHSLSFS"}
{"SMILES": "COc1ccc(-n2ccnc2SCC(=O)Nc2cc(Cl)ccc2OC)c(OC)c1", "target": "Dihydroorotate dehydrogenase (quinone), mitochondrial (PFF0160c, Plasmodium falciparum, UniProt Q08210)", "observed": "enzyme activity", "mode": "inhibitor", "method": "absorbance", "endpoint": "IC50", "result": "0.478 µM"}
{"SMILES": "C[C@@H](O)[C@@H](NC(=O)[C@H](CCc1ccccc1)NC(=O)CCc1ccccc1)C(=O)N[C@H](CCCNC(=N)N)C(=O)c1nc2ccccc2s1", "target": "TMPRSS2", "observed": "enzyme activity", "mode": "inhibitor", "concentration": "1 nM", "endpoint": "activity vs control", "result": "75%"}
{"SMILES": "CC(C)CC(=O)OC[C@H]1O[C@@](C#N)(c2ccc3c(N)ncnn23)[C@H](O)[C@@H]1O", "target": "Platelet-activating factor receptor (PTAFR, Homo sapiens, UniProt P25105)", "observed": "cell-free assay", "concentration": "20 µM", "endpoint": "inhibition", "result": "4%"}
{"SMILES": "CN1CCC[C@H]1c1cccnc1", "target": "Alpha-2C adrenergic receptor (ADRA2C, Homo sapiens, UniProt P18825)", "observed": "ligand displacement", "concentration": "50 µM", "endpoint": "inhibition", "result": "4.08%"}
{"SMILES": "O=C(Nc1cccc(CN2CCN(C(=O)c3cccc(Cl)c3)CC2)c1)c1ccco1", "target": "Dihydroorotate dehydrogenase (quinone), mitochondrial (PFF0160c, Plasmodium falciparum, UniProt Q08210, E182D)", "observed": "enzyme activity", "mode": "inhibitor", "method": "absorbance", "endpoint": "IC50", "result": "9.55 µM"}
{"SMILES": "C#Cc1n[nH]c2c(-c3cn([C@@H](C)c4ccccn4)c(=O)[nH]c3=O)cc(F)cc12", "target": "Tyrosine-protein kinase JAK3 (JAK3, Homo sapiens, UniProt P52333)", "observed": "enzyme activity", "mode": "inhibitor", "concentration": "0.1 µM", "endpoint": "inhibition", "result": "-3.2%"}
{"SMILES": "CC1=CC(=O)c2c(O)cccc2C1=O", "target": "CTSL", "observed": "enzyme activity", "mode": "inhibitor", "concentration": "100 µM", "endpoint": "remaining activity", "result": "8.58%"}
{"SMILES": "CN1C(=O)/C(=N\\Nc2ncc(-c3cc4ccccc4oc3=O)s2)c2cc(Cl)ccc21", "target": "Acetylcholinesterase (ACHE, Homo sapiens, UniProt P22303)", "observed": "enzyme activity", "mode": "inhibitor", "method": "Ellman", "concentration": "5 µM", "endpoint": "inhibition", "result": "95.5%"}
{"SMILES": "CC(C)CCC(=O)N[C@@H](Cc1ccc(O)cc1)C(=O)N[C@H](C(=O)N[C@@H](CCCNC(=N)N)C(=O)c1nc2ccccc2s1)C(C)C", "target": "TMPRSS2", "observed": "enzyme activity", "mode": "inhibitor", "concentration": "1 nM", "endpoint": "activity vs control", "result": "92%"}
{"SMILES": "Nc1ccncc1", "target": "Potassium voltage-gated channel subfamily A member 1 (KCNA1, Homo sapiens, UniProt Q09470)", "observed": "ion current", "mode": "inhibitor", "method": "patch clamp", "concentration": "10 µM", "endpoint": "inhibition", "result": "1080%"}
{"SMILES": "Nc1ncc(-c2nc(N3CCOCC3)nc(N3CCOCC3)n2)c(C(F)F)n1", "target": "Epidermal growth factor receptor (EGFR, Homo sapiens, UniProt P00533, del752-759)", "observed": "cell-free assay", "method": "competition with immobilised ligand", "concentration": "10 µM", "endpoint": "remaining binding", "result": "88%"}
{"SMILES": "N=C(N)NCCCCC(=O)N[C@@H](CCC(N)=O)C(=O)N[C@@H](Cc1ccc(OCc2ccccc2)cc1)C(=O)N[C@@H](CCCNC(=N)N)C(=O)c1nc2ccccc2s1", "target": "TMPRSS2", "observed": "enzyme activity", "mode": "inhibitor", "concentration": "1 nM", "endpoint": "activity vs control", "result": "82%"}
{"SMILES": "CCN(CC)CCCC[C@H](NC(=O)[C@H](CC(C)C)NC(=O)[C@H](C)NC(=O)[C@H](Cc1ccccc1)NC(=O)c1ccc(C(C)(C)C)cc1)C(=O)N[C@@H](CO)C(=O)OC", "target": "Endothelin-1 receptor (EDNRA, Homo sapiens, UniProt P25101)", "observed": "ligand displacement", "method": "radioligand", "concentration": "10 µM", "endpoint": "remaining binding", "result": "112%"}
{"SMILES": "COc1ncccc1-c1cnn2ccc(N3CCN(C(=O)OC(C)C)CC3)nc12", "target": "Serine/threonine-protein kinase 32C (STK32C, Homo sapiens, UniProt Q86UX6)", "observed": "binding", "method": "competition with immobilised ligand", "concentration": "1 µM", "endpoint": "remaining binding", "result": "62%"}
{"SMILES": "CC(=O)N[C@@H](CCC(N)=O)C(=O)N[C@@H](Cc1ccccc1)C(=O)N[C@@H](CCCNC(=N)N)C(=O)c1nc2ccccc2s1", "target": "TMPRSS2", "observed": "enzyme activity", "mode": "inhibitor", "concentration": "1 nM", "endpoint": "activity vs control", "result": "22%"}
{"SMILES": "Cc1nn(C)cc1-c1nc2c(N3CCN(Cc4ccc(Cl)cc4)CC3)c(Cl)cnc2[nH]1", "target": "Epidermal growth factor receptor (EGFR, Homo sapiens, UniProt P00533, L858R/T790M)", "observed": "binding", "method": "competition with immobilised ligand", "concentration": "1 µM", "endpoint": "remaining binding", "result": "91%"}
{"SMILES": "N=C(N)NCCC[C@H](N)C(=O)N[C@@H](CCC(N)=O)C(=O)N[C@@H](Cc1ccc(Cl)cc1)C(=O)N[C@H](CCCNC(=N)N)C(=O)c1nc2ccccc2s1", "target": "TMPRSS2", "observed": "enzyme activity", "mode": "inhibitor", "concentration": "1 nM", "endpoint": "activity vs control", "result": "95%"}
{"SMILES": "[2H]c1c([2H])c([C@]2([2H])CCCN2C(=O)C(C)(C)Oc2ccc3cn[nH]c3c2)c([2H])c([2H])c1C([2H])([2H])[2H]", "target": "cGMP-dependent protein kinase 1 (PRKG1, Homo sapiens, UniProt Q13976)", "observed": "binding", "method": "competition with immobilised ligand", "concentration": "1 µM", "endpoint": "remaining binding", "result": "67%"}
{"SMILES": "N=C(N)NCCCCC(=O)N[C@@H](CCC(N)=O)C(=O)N[C@@H](CC1CCCCC1)C(=O)N[C@@H](CCCNC(=N)N)C(=O)c1nc2ccccc2s1", "target": "TMPRSS2", "observed": "enzyme activity", "mode": "inhibitor", "concentration": "1 nM", "endpoint": "activity vs control", "result": "67%"}
{"SMILES": "CCCCCc1cc(=O)c2ccccc2[nH]1", "target": "CTSL", "observed": "enzyme activity", "mode": "inhibitor", "concentration": "100 µM", "endpoint": "remaining activity", "result": "123%"}
{"note": "Excerpt of the above:"}
{"SMILES": "CN1CCC[C@H]1c1cccnc1", "target": "Alpha-2C adrenergic receptor (ADRA2C, Homo sapiens, UniProt P18825)", "observed": "ligand displacement", "concentration": "50 µM", "endpoint": "inhibition", "result": "4.08%"}
{"SMILES": "Cc1nn(C)cc1-c1nc2c(N3CCN(Cc4ccc(Cl)cc4)CC3)c(Cl)cnc2[nH]1", "target": "Epidermal growth factor receptor (EGFR, Homo sapiens, UniProt P00533, L858R/T790M)", "observed": "binding", "method": "competition with immobilised ligand", "concentration": "1 µM", "endpoint": "remaining binding", "result": "91%"}
{"SMILES": "N=C(N)NCCCCC(=O)N[C@@H](CCC(N)=O)C(=O)N[C@@H](Cc1ccc(OCc2ccccc2)cc1)C(=O)N[C@@H](CCCNC(=N)N)C(=O)c1nc2ccccc2s1", "target": "TMPRSS2", "observed": "enzyme activity", "mode": "inhibitor", "concentration": "1 nM", "endpoint": "activity vs control", "result": "82%"}
